# Experimental data from different studies.
# Compare with care: the assays were run in different laboratories. Values joined by “and” are separate records of one study, mostly repeats; a detail may differ. ± gives the spread as reported.
# Chain of UniProt Q6NT16 (whole entry, unmodified, looked up): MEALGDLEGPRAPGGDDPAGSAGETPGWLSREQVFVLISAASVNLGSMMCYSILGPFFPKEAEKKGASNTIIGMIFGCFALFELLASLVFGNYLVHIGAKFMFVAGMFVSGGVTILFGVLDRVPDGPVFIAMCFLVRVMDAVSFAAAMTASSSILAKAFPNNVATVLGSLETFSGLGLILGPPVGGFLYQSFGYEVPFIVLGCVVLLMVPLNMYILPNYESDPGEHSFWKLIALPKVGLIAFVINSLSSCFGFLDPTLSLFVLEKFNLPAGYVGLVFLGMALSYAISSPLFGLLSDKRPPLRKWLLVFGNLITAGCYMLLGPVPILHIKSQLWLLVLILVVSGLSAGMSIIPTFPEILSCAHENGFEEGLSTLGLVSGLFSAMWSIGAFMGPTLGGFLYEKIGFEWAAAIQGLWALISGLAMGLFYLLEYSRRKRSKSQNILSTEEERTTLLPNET
SMILES,target or system,assay,system,conditions,how to read,endpoint,value
CC[S+]([O-])c1nc(-c2ccccc2)cc(C(F)(F)F)n1 (stereo not drawn),transportin-1/2,"FUS nuclear import, high content imaging",HeLa Kyoto reporter,"15.8 µM, 2 h",,cells with nuclear reporter,94.4% and 97.2%
CC[C@H](C)C(=O)N1CCC(NC(=O)Nc2ccc(OC(F)(F)F)c(F)c2)CC1,Caco-2,Caco-2 permeability,,"10 µM, 60 min, pH 7.4 apical, 7.4 basolateral, replicate 1",apical to basolateral,percent recovery,47%
O=C(O)CNC(=O)Cc1ccccc1,,,"ventricular cardiomyocytes, C57BL/6 mouse","dose not given, 0.32 s",,sarcomere length,1.72 µm
Cn1cc(-c2ccc(-c3cncc(Cl)c3N3CCC4(CCNC4=O)CC3)cc2)cn1,COLO 205,"gene expression, microarray, refers to: FLOT1 mRNA",,"concentration not given, 6 h",relative to: untreated cells,log2 fold change,1.12
CC(C)C[C@H](NC(=O)C[C@H](O)[C@H](CC(C)C)NC(=O)[C@H](Cc1c[nH]cn1)NC(=O)CNC(=O)[C@@H](NC(=O)[C@H](C)NC(=O)[C@H](Cc1c[nH]c2ccccc12)NC(=O)[C@H](CCC(N)=O)NC(=O)[C@@H](Cc1ccccc1)NC(=O)COCCOCCNC(=O)CN1CCN(CC(=O)O)CCN(CC(=O)O)CCN(CC(=O)O)CC1)C(C)C)C(N)=O [lutetium-177 labelled],,,"female BALB/c nu/nu mice, liver","intravenous, 50 pmol, 1 h",,tissue uptake,0.31 ± 0.04 %ID/g
CNCCOC12CC3(C)CC(C)(CC(Cn4ncc(-c5ccc(N6CCc7cccc(C(=O)Nc8nc9ccccc9s8)c7C6)nc5C(=O)O)c4C)(C3)C1)C2,,,anaesthetised male beagle dogs,"intravenous bolus, 0.03 mg/kg, 180 min",,plasma concentration,0 ng/mL
CC(C)C[C@H](NC(=O)C[C@H](O)[C@H](CC(C)C)NC(=O)[C@H](Cc1c[nH]cn1)NC(=O)CNC(=O)[C@@H](NC(=O)[C@H](C)NC(=O)[C@H](Cc1c[nH]c2ccccc12)NC(=O)[C@H](CCC(N)=O)NC(=O)[C@@H](Cc1ccccc1)NC(=O)COCCOCCNC(=O)CCC(C(=O)O)N1CCN(CC(=O)O)CCN(CC(=O)O)CCN(CC(=O)O)CC1)C(C)C)C(N)=O (stereo partly drawn) [lutetium-177 labelled],,,"BALB/c nu/nu mice, female, PC-3 xenograft tumour","intravenous, 100 pmol, 90 h, together with: PA 300 µg",,tissue uptake,0.39 ± 0.07 %ID/g
O=C(Nc1nc2cccc(-c3ccc(CN4CCS(=O)(=O)CC4)cc3)n2n1)C1CC1,,refers to: joint swelling,human rheumatoid arthritis patients,"oral, 30 mg once daily, 4 weeks, regardless of relatedness",,treatment-emergent adverse events,0%
O=C(CO)[C@@H](O)[C@H](O)CO,,"binding, MIDAS equilibrium dialysis LC-MS",A2AR-BRIL thermostabilized,concentration not given,relative to: no-protein control,log2 fold change,-0.254
OC(CCN1CCCCC1)(c1ccccc1)C1CC2C=CC1C2 (stereo not drawn),,resting-state EEG,healthy elderly humans,"oral, 2 mg, eyes open, LS mean",,"gamma power, EEG, Pz-O1",0.9 µV²
O=C(O)CC(C(=O)O)C(O)C(=O)O (racemic),,"binding, MIDAS equilibrium dialysis LC-MS",A2AR-BRIL thermostabilized,concentration not given,relative to: no-protein control,log2 fold change,-0.244
CCN(CC)CCNC(=O)c1c(C)[nH]c(/C=C2\C(=O)Nc3ccc(F)cc32)c1C,CK1 (yeast),"kinase activity, inhibitor",,0.3 µM,,inhibition,46%
COc1cnc2cccc(N3CCc4c(cc(Cn5ccnc5C)cc4-c4cn(C)nc4C(F)(F)F)C3=O)c2c1,NCI-H1838,"cell growth, inhibitor",,120 h,,EC50,0.0227 µM
CCS(=O)(=O)c1nc(C2CC2)cc(C(F)(F)F)n1,transportin-1/2,"FUS nuclear import, high content imaging",HeLa Kyoto reporter,"0.5 µM, 2 h",,cells with nuclear reporter,93.7% and 93.6%
CCc1cc(C(=O)NC)c2nccc(N3CCc4c(cc(Cn5ccnc5)cc4-c4cn(C)nc4C(F)(F)F)C3=O)c2c1,,,Sprague Dawley rats,"oral, 100 mg/kg once daily, 7 days",,serum DBIL level,0.7 ± 0.13 µmol/L
Cc1cn([C@@H]2O[C@H](CO)[C@@H](O)[C@H]2O)c(=O)[nH]c1=O,,"binding, MIDAS equilibrium dialysis LC-MS",A2AR-BRIL thermostabilized,concentration not given,relative to: no-protein control,log2 fold change,-0.0532
NCCCNCCCCNCCCN,"MFS-type transporter SLC18B1 (SLC18B1, Homo sapiens, UniProt Q6NT16, Y51A)",binder,,,,Kd,296 µM
Cc1c(-c2ccc(N3CCc4cccc(C(=O)Nc5nc6ccccc6s5)c4C3)nc2C(=O)O)cnn1CC12CC3(C)CC(C)(C1)CC(OCCNCC[C@H](O)CO)(C3)C2,,,"beagle dog, male, anaesthetised","intravenous infusion, 0.3 mg/kg/min, 90 (unit not given)",relative to: vehicle,heart rate change,-15%
N#Cc1ccc2c(c1)[C@H]1CCCN(C(=O)c3ccc4[nH]cnc4c3)[C@H]1C2,,,"T2DM patients with overweight or obesity, plasma","oral, 40 mg, day 15 (360 h), multiple dosing, mean",,fasting plasma insulin,14.3 mU/L
CCn1cc(-c2cc(Cn3ccoc3=N)cc3c2CCN([C@@H](C)c2cc(OC)ccn2)C3=O)c(C(F)(F)F)n1,RL,cell growth,,120 h,,EC50,0.0208 µM
O=C(O)[C@H]1O[C@H](OP(=O)(O)OP(=O)(O)OC[C@H]2O[C@@H](n3ccc(=O)[nH]c3=O)[C@H](O)[C@@H]2O)[C@H](O)[C@@H](O)[C@@H]1O,,"binding, MIDAS equilibrium dialysis LC-MS",A2AR-BRIL thermostabilized,concentration not given,relative to: no-protein control,log2 fold change,-0.206
CCn1cc(-c2cc(Cn3ccnc3)cc3c2CCN([C@H](c2cc(OC)ccn2)C2CC2)C3=O)c(C(F)(F)F)n1,WM-115,"cell growth, inhibitor",,120 h,,EC50,> 30 µM
CSc1cc(Oc2ccnc3[nH]c(=O)cnc23)ccc1NC(=O)Nc1cc(C(C)(C)C)nn1-c1ccccc1,patient-derived cell line,"RPPA, refers to: GSK-3β pSer9",human,"1 µM, 4 h",relative to: DMSO,phospho/total ratio,0.41
Cc1ncc(COP(=O)(O)O)c(C=O)c1O,,"binding, MIDAS equilibrium dialysis LC-MS",A2AR-BRIL thermostabilized,concentration not given,relative to: no-protein control,log2 fold change,0.573
O=C(/C=C/C=C/C=C/C1CCCCC1)NC1=C[C@@](O)(/C=C/C=C/C=C/C(=O)NC2=C(O)CCC2=O)[C@@H]2O[C@@H]2C1=O,hep3b217,"cell growth, inhibitor, CellTiter-Glo luminescence",,78 h,relative to: day 0 cell count,GI50,17.2 µM
O=c1ccn([C@@H]2O[C@H](CO)[C@@H](O)[C@H]2O)c(=O)[nH]1,,"binding, MIDAS equilibrium dialysis LC-MS",A2AR-BRIL thermostabilized,concentration not given,relative to: no-protein control,log2 fold change,-0.146
Cc1cc(Nc2ccc(S(F)(F)(F)(F)F)cc2)n2nc(C(C)(F)F)nc2n1,Plasmodium falciparum,,P. falciparum malaria patients,"oral, 400 mg",,patients with any adverse event,76.9%

# Excerpt of the above:
SMILES,target or system,assay,system,conditions,how to read,endpoint,value
OC(CCN1CCCCC1)(c1ccccc1)C1CC2C=CC1C2 (stereo not drawn),,resting-state EEG,healthy elderly humans,"oral, 2 mg, eyes open, LS mean",,"gamma power, EEG, Pz-O1",0.9 µV²
CC[S+]([O-])c1nc(-c2ccccc2)cc(C(F)(F)F)n1 (stereo not drawn),transportin-1/2,"FUS nuclear import, high content imaging",HeLa Kyoto reporter,"15.8 µM, 2 h",,cells with nuclear reporter,94.4% and 97.2%
